Experimental data collected from several papers.
Parts stem from different laboratories: compare values within a part only. Substitutions count along the parent as printed.

Study 1 — method: protein binding microarray; form: double-stranded DNA, one strand shown; medium: in vitro; concentration: not given; reference: not given; direction: higher = stronger binding; quantity: E-score
Target: Histone acetyltransferase KAT6A, winged helix 2, GST fusion (KAT6A, Homo sapiens, UniProt Q92794, residues 85-181)
Notes: 8-mer, flanks averaged, mean of 2 arrays, mostly near background
Residues (chain): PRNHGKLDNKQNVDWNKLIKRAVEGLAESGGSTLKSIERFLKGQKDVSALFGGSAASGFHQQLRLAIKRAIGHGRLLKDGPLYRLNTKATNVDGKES
GGAGAGAA: 0.0203
CATCGTGG: -0.0121
GGACGCAA: 0.0469
GAGTTCGA: 0.0636
CCGGATAC: -0.0599
GGGTGAAA: 0.075
TCTGGACA: -0.0568
AGGTGCAT: -0.0759
AATATACG: -0.165
CTGGGCGC: -0.13
AAATGAGT: -0.0157
ACGGTAGT: -0.124
GTTTAGTA: -0.0343
GTACGTCA: -0.266
ATTCTCTC: -0.0442
ATATAAAT: 0.226

Study 2 — method: universal PBM; form: double-stranded DNA, one strand shown; medium: in vitro; concentration: not given; direction: higher = stronger binding; quantity: E-score
Target: Sal-like protein 4, full length isoform B (SALL4, Homo sapiens, UniProt Q9UJQ4-2, residues 1-616)
Notes: 8-mer, flanks averaged, mean of replicates
Residues (chain): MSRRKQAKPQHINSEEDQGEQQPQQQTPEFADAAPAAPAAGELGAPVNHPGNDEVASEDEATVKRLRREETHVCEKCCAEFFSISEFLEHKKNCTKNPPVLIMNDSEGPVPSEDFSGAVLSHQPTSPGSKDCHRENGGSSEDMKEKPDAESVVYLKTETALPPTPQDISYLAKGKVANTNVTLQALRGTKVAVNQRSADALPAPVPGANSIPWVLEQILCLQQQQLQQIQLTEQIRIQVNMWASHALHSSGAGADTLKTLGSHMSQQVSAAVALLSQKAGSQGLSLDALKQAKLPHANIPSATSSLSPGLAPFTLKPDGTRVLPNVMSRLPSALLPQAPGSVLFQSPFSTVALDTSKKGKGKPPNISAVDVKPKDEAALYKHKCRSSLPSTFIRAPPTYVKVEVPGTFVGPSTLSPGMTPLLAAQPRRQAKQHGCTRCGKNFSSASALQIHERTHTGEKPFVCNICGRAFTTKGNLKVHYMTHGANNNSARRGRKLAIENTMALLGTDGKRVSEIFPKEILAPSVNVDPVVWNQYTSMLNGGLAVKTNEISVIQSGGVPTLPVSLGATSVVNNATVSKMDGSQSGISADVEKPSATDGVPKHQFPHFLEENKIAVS
GGTTTTAC: 0.0192
AGAGAGCT: -0.188
ACCTCATC: -0.0863
AACCCAGA: -0.0587
CACATGCG: -0.179
AGAGCGCG: -0.223
ACACGACC: -0.0983
ACCCTTAT: 0.17
AGCTGACT: -0.161
AAACGAGT: 0.0808
CAAAATTA: 0.343
AGTGAAGG: -0.0284
GCGCCGAC: -0.182
CAGTACCA: -0.0972
CTGACGCA: -0.191
AGGTCACG: -0.346
GAACTACC: 0.0103
GAGGTGAC: -0.0326
ATTCTTGG: 0.12
CAATCCAG: -0.168
CGAACAGC: -0.159

Study 3 — method: DHFR PCA, deep sequencing; medium: yeast; together with: (+)-ABA 200 µM; reference: wild-type fitted maximum; direction: higher = stronger binding; quantity: relative binding score
Target: ABI1, truncated, D143A, DHFR fusion (Arabidopsis thaliana)
Notes: methotrexate growth selection, single substitutions
Parent: PYL1, truncated, DHFR fusion (Arabidopsis thaliana); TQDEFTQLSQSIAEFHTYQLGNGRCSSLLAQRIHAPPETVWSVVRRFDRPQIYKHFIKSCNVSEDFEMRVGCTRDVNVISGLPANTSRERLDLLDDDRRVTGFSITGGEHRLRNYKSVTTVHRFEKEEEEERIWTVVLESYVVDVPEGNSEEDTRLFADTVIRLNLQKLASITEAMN
L138K: 13.1%
Y53G: 34.8%
E128L: 99.2%
V76N: 66.2%
E139T: 98.7%
Q31K: 93.2%
F47E: -0.252%
D153T: 46.2%
T160G: 71.6%
R69S: 98.8%
C72K: 85.3%
W41K: -36.3%
L28S: 62.2%
I105F: -6.26%

Study 4 — target: CCNE1, cyclin fold, Cln2 fusion (human); method: yeast growth competition, sequencing; medium: yeast; notes: strong parent motif; reference: not given; direction: higher = stronger binding; quantity: normalised enrichment score
Parent: CDKN1C docking peptide (human); TSACRSLFGPVDH
TSACRSLFGPVDA [H13A]: 1.83
TSACRSLFGPVAH [D12A]: 1.18
TSACKSLLGPVDH [R5K F8L]: 0.0305
TSACRALFGPVDH [S6A]: 2.43
TSACRSLFGPADH [V11A]: 2.16
TSACRSAFGPVDH [L7A]: -0.27
TSAARSLFGPVDH [C4A]: 0.286

Study 5 — method: RNA Bind-n-Seq; form: RNA; medium: in vitro; concentration: 1 µM; notes: whole 134-nt RNA, ends assumed; together with: 150 mM KCl; reference: input library; direction: higher = stronger binding; quantity: log2 enrichment
Target: Ras GTPase-activating protein-binding protein 1, C-terminal RGG region (G3BP1, Homo sapiens, UniProt Q13283)
UniProt Q13283, sequence (whole entry, looked up): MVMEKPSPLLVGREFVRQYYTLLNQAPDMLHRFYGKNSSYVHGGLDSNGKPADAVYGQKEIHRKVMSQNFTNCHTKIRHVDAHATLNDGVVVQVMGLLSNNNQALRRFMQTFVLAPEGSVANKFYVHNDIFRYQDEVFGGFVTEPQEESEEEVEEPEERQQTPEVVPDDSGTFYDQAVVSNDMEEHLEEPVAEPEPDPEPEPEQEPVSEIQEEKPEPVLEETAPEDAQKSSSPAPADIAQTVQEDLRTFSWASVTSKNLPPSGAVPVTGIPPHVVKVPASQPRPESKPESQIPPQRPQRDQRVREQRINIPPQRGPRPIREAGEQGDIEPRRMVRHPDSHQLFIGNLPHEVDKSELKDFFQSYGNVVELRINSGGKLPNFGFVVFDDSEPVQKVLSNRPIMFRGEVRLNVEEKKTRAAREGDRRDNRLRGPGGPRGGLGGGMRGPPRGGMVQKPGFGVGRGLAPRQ
Shared flanks, not repeated: GGGAGUUCUACAGUCCGACGAUC … UGGAAUUCUCGGGUGUCAAGG
AAGUCCUGUGCUACACAUCGUAUGUACCGAAUCGGGUUUUGGGGUUUUGGGUUUUGGAAAGUAUUAUGUUACGCCGUUCGGAUCUGCACU: -0.797
UAACUUUAGAGGAGGAUCUGAUGGAUAUGGCAGUGGACGUGGAUUUGGGGAUGGCUAUAAUGGGUAUGGAGGAGGACCUGGAGGUGGGAA: -0.437
UAACUUUAGAGGAGGAUCUGAUGGAUAUGGCAGUGGACGUGGAUUUGGGGAUGGCUAUAAUGGGUAUGGAGGAGGCCCUGGAGGUGGCAA: -0.226
UACUGCUCCUCAGCAGGAAGCGGAUGCUGAGGUGAACACAGAAACACUAAAUAAGUCCUCCCAGGGGAGCUCCUCGAGCACACAAUCAGC: -0.326
UUUCUAGCUGGACCAGUCCGGUACGCUCCGGGCCUCACCGAGGAAGUCCCACCCUGCAGGGGAACCGACUCUGGCCGGCCCUAACCCCUC: -1.19
GUCCUGUGCUACACAUCGUAUGUACCGAAUCAAACCCAAAUUUUUUUAAAUUUUUAAAAAAGUAUUAUGUUACGCCGUUCGGAUCUGCAC: -1.57
UCAAGUCCUGUGCUACACAUCGUAUGUACCGAAUCGGUUUUUUUGGUGGUUUGGAAAGUAUUAUGUUACGCCGUUCGGAUCUGCACUUCC: -1.21
CCUCAAGUCCUGUGCUACACAUCGUAUGUACCGAAUCGGGGCGGGGCGGCGGGAAAGUAUUAUGUUACGCCGUUCGGAUCUGCACUUCCA: -0.298
CUGUGCUACACAUCGUAUGUACCGAAUCGGGGCCCCCCCGGGCCCCCCCGGGCCCCCCCGGGAAAGUAUUAUGUUACGCCGUUCGGAUCU: -2.32
UCCUGUGCUACACAUCGUAUGUACCGAAUCGGGGUUUGGGGUUUUUGGGGAAAAAGGGGAAAGUAUUAUGUUACGCCGUUCGGAUCUGCA: 1.95
GCAGGAAGUAAAAACAAAUGGAAAUGCUUUGGAUAGUGGCAGGGGUGGGGGUUGCUAAGGAAAGGGUGGGAUGGGAGUGGGUAAAGAGUU: 1.68
AAGUCCUGUGCUACACAUCGUAUGUACCGAAUCGGUUUUUUUGGAGGAAAAAAAGGAAAGUAUUAUGUUACGCCGUUCGGAUCUGCACUU: -2.13
UAACUUUAGAGGAGGAUCUGAUGGAUAUGGCAGUGGACGUGGAUUUGGGGAGGGCUAUAAUGGGUAUGGAGGAGGACCUGGAGGUGGCAA: -0.0914
UGGGAGGUGGAUUUUGUUUAUUUCUUUAGCUCAUUUCCAGGGGUGGGAAUUUUUUUUUAAUAUGUGUCAUGAAUAAAGUUGUUUUUGAAA: 3.19

Study 6 — target: CREB3L3, bZIP domain (human); method: DHFR protein complementation; medium: yeast; reference: wild-type JUN-FOS pair; direction: higher = stronger binding; quantity: binding fitness
Notes: single substitutions, most at no-binding floor
Parent: JUN, bZIP domain (human); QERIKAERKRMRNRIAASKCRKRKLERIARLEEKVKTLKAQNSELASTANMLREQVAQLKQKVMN; partner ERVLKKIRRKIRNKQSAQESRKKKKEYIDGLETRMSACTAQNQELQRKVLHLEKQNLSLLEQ
A29Y: -1.5 natural log
A29G: -1.41 natural log
M51R: -1.42 natural log
K34Q: -1.49 natural log
A46Q: -1.13 natural log
R30T: -1.4 natural log
I28Y: -1.07 natural log
L31S: -1.5 natural log
T37S: -1.48 natural log
N42D: -1.51 natural log
Q41E: -1.36 natural log
R53W: -1.33 natural log
Q41I: -1.44 natural log
T37R: -1.36 natural log
T37G: -1.42 natural log
L52M: -1.54 natural log
E54K: -1.54 natural log

Study 7 — method: protein-binding microarray; form: double-stranded DNA, one strand shown; medium: in vitro; concentration: 2200 nM top; notes: 60-bp whole probe; together with: salmon DNA 0.4 mg/ml; reference: random background probes; direction: higher = stronger binding; quantity: fitted relative affinity; shared flanks, not repeated: GCCTAGCAC … GTCTTGATTCGCTTGACGCTGCTG
Target: Interferon regulatory factor 7, full length, phosphomimetic (IRF7, Homo sapiens, UniProt Q92985, residues 1-503, S471D/S472D/S475D/S476D/S477D/S483D/S484D/S487D)
UniProt Q92985, sequence (whole entry, unmodified, looked up): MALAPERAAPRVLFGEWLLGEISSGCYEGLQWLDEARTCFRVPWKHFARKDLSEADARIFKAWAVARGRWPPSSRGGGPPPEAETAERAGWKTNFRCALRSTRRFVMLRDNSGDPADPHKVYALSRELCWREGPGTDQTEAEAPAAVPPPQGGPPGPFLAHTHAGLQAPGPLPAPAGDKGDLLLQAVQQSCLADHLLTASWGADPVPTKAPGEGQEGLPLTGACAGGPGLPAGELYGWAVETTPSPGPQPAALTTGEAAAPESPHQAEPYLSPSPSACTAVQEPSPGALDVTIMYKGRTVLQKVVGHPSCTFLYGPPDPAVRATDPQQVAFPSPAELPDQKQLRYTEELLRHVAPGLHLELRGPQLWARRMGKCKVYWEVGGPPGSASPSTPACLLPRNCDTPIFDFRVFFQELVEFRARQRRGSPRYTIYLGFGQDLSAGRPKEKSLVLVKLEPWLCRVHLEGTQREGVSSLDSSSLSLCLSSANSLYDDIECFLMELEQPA
TTTCTTCTAGACTTCTCCATGTGCTAG: 2.41 z-score
GACGGTTTCGGACTGGCGACGTGCTAG: 3.79 z-score
TTAGAACTGAGACTGGATCAGTGCTAG: -0.575 z-score
TTAGGACTGGACTATCGGTCAGTGCTA: -0.734 z-score
GACGGCTTCCTTATCCTGACGTGCTAG: 0.977 z-score
GACGGTTTCCTTAGCCTGACGTGCTAG: 1.46 z-score
GACGGACTGGACAATCGGGACGTGCTA: -0.415 z-score
GACGAGATCAGTATCGAGACGTGCTAG: 0.329 z-score
ACCTGTTCCCTCATCAGGCTGTGCTAG: 2.09 z-score
AACGGTTCCGGTTTCGGGACGTGCTAG: 5.79 z-score
TTAGAACTGAGTATTGATTAGTGCTAG: -0.492 z-score
TTAGGACAGGACACTGGGTTAGTGCTA: -0.839 z-score
GACGAACTTGGGACTGGAGACGTGCTA: -0.382 z-score
GACGGTATACTTATCCTGACGTGCTAG: 0.464 z-score
TTAGGTATCGGGTATCGGTGAGTGCTA: 0.255 z-score
GACGGTTTCGGGTATCGGCACGTGCTA: 5.81 z-score
TTAGGTTTCCTTTTCCGTTAGTGCTAG: 5.29 z-score
GACGATTTCAGTTCCGAGATGTGCTAG: 1.87 z-score
TCAGGACTGGGGACTGGGTTAGTGCTA: -1.12 z-score
TTAGGTTTCGGGACTGGGTTCGTGCTA: 3.42 z-score
GACGATCTCAGACTGGAGCCGTGCTAG: -0.119 z-score
GTAGGTTTCGGTTTCGGTTAGTGCTAG: 16.8 z-score
TTAGAACTGGGGTATCGATTAGTGCTA: -0.0905 z-score
GTGTTTTTCTCCTATTTAAGAGTGCTA: 2.26 z-score
GACGGACTGCTACTGCTGTCGTGCTAG: 0.0621 z-score

Single results of other studies
PhoQ, residues 284 288 289 292 302 303 SVHLDV
fold induction (PhoP, residues 12 14 15 18 19 NQFFI (Escherichia coli, UniProt P23836); Sort-seq, refers to: YFP reporter; E. coli; PhoQ-PhoP variant library, together with: 10 µM Mg2+; reference: high Mg2+ state, higher = stronger signaling): 11.7
